# Measured values collected from several papers.
# Numbers after ± are the reported error.
SMILES,target or system,assay,test system,conditions,scale,measurement,result
O=C(NO)c1ccc(CN2c3ccccc3Oc3cc(C(=O)Nc4ccc(C(=O)c5ccccc5)cc4)ccc32)cc1,HeLa nuclear HDACs,"enzyme activity, inhibitor",,added: Boc-Lys(Ac)-AMC,,IC50,1.91 ± 0.76 µM
Cc1ccc(-c2cc(CF)nn2-c2ccc(S(N)(=O)=O)cc2)cc1,COX-2 (mouse),"enzyme activity, inhibitor",RAW264.7,"30 min, added: LPS 200 ng/mL and IFN-gamma 10 U/mL",,IC50,0.08 µM
Cc1ccc2ncn(Cc3cn(Cc4ccc(/C=C/C(=O)NO)cc4)nn3)c(=O)c2c1,HDAC,"enzyme activity, inhibitor, fluorogenic",HeLa nuclear extract,"30 min, 37 °C",,IC50,0.571 µM
Oc1ccc(/C=C/c2cc(O)cc(O)c2)cc1,NF-κB (human),"reporter gene, inhibitor",SW1353,added: PMA,,IC50,18.5 µg/mL
Cc1ccc2c(=O)n(Cc3cn(Cc4ccc(/C=C/C(=O)NO)cc4)nn3)cnc2c1,HDAC,"enzyme activity, inhibitor, fluorogenic",HeLa nuclear extract,"30 min, 37 °C",,IC50,0.939 µM
CCCS(=O)(=O)Nc1ccc(F)c(C(=O)c2c[nH]c3ncc(-c4ccc(Cl)cc4)cc23)c1F,MEK phospho-Ser217/221,"MEK phosphorylation, inhibitor","mouse A-375 xenograft, tumour",,,IC50,16.8 µg/mL
CC(C)(O)C(=O)C(=O)Nc1cccc(C(=O)N2CCC(c3cccc(CN)c3)CC2)c1,"tryptase, human","enzyme activity, inhibitor",HMC1,"2 h, added: A23187 1 µM",,IC50,0.052 µM
COc1ccc(/C=C/c2cc(O)cc(O[C@@H]3O[C@H](CO)[C@@H](O)[C@H](O)[C@H]3O)c2)cc1O,NF-κB (human),"reporter gene, inhibitor",SW1353,added: PMA,,IC50,> 25 µg/mL
Cc1cccc(C)c1NC(=O)C1CN(Cc2ccccc2)CCN1 (stereo not drawn),"Nav1.4, Pelophylax lessonae","sodium current, use-dependent blocker, vaseline gap voltage clamp",skeletal muscle fibres,10 Hz pulse trains,,IC50,2.5 ± 0.4 µM
COc1cccc2c1C(=O)c1c(O)c3c(c(O)c1C2=O)C[C@@](O)(C(=O)CO)C[C@@H]3O[C@H]1C[C@H](NC(=O)[C@@H]2CCCN2C(=O)CN)[C@H](O)[C@H](C)O1,,,"mouse, E0771 tumour-bearing, liver","intravenous, 92 µmol/kg PhAc-ALGP-Dox",,terminal half-life,14.8 h
CN[C@H]1[C@@H](O)[C@@H](NC)C(=O)[C@H]2O[C@@H]3O[C@H](C)C[C@@H](NC(=O)Cc4ccc(O)cn4)[C@]3(O)O[C@H]12,Mycolicibacterium smegmatis 70S ribosome,"cell-free translation, inhibitor, refers to: firefly luciferase",,,,IC50,34.7 µg/mL
"CO[C@H]1O[C@@H]2CO[C@@](C)(C(=O)O)O[C@@H]2[C@H](O)[C@H]1O (single isomer, unassigned)",human IgM WEA,"precipitation, inhibitor, quantitative precipitin inhibition",,added: agar,,IC50,0.2 µM
O=C(Nc1ccccc1)C1CCN(Cc2ccccc2)C1 (stereo not drawn),"Nav1.4, Pelophylax lessonae","sodium current, use-dependent blocker, vaseline gap voltage clamp",skeletal muscle fibres,2 Hz pulse trains,,IC50,17.6 ± 2.4 µM
Cc1ccc2ncn(Cc3cn(Cc4ccc(C(=O)NO)cc4)nn3)c(=O)c2c1,HDAC,"enzyme activity, inhibitor, fluorogenic",HeLa nuclear extract,"30 min, 37 °C",,IC50,0.425 µM
Cc1cc(C)c(C)c(NC(=O)C2CCN(Cc3ccccc3)C2)c1C (stereo not drawn),"Nav1.4, Pelophylax lessonae","sodium current, use-dependent blocker, vaseline gap voltage clamp",skeletal muscle fibres,10 Hz pulse trains,,IC50,2.2 ± 0.1 µM
N#Cc1ccc2c(c1)Oc1ccccc1N2Cc1ccc(C(=O)NO)cc1,HeLa nuclear HDACs,"enzyme activity, inhibitor",,added: Boc-Lys(Ac)-AMC,,IC50,0.87 ± 0.02 µM
CC[C@H](C(=O)N1CCCC[C@H]1C(=O)O[C@H](CCc1ccc(OC)c(OC)c1)c1cccc(OCCN2CCOCC2)c1)c1cc(OC)c(OC)c(OC)c1,YFP-LID fusion,"protein degradation, flow cytometry",NIH3T3 expressing YFP-LID,,,IC50,0.0033 µM
N=C(N)N,"neuronal nicotinic acetylcholine receptor, rat","ACh-evoked current, inhibitor, whole-cell voltage clamp",rat intracardiac parasympathetic neurons,"pH 7.9, holding -90 mV, added: 100 µM ACh",,IC50,2500 µM
C#C[C@]1(COP(=O)(O)OP(=O)(O)OP(=O)(O)O)O[C@@H](n2cnc3c(N)nc(F)nc32)C[C@@H]1O,human PBMC tumour model,,"host not given, plasma","oral, 15 mg, single dose, fasted",,half-life,161 h
O=C(Nc1ccc(Cl)cc1)C1CCN(Cc2ccccc2)C1 (stereo not drawn),"Nav1.4, Pelophylax lessonae","sodium current, use-dependent blocker, vaseline gap voltage clamp",skeletal muscle fibres,2 Hz pulse trains,,IC50,20.2 ± 2.1 µM
O=C(NO)c1ccc(Cn2cc(Cn3cnc4ccc(F)cc4c3=O)nn2)cc1,HDAC,"enzyme activity, inhibitor, fluorogenic",HeLa nuclear extract,"30 min, 37 °C",,IC50,0.263 µM
CC(C)[C@H](NC(=O)[C@@H]1CCCN1C(=O)[C@H](CCCNC(=N)N)NC(=O)[C@H](CS)NC(=O)[C@H](Cc1c[nH]c2ccccc12)NC(=O)[C@H](CCCNC(=N)N)NC(=O)[C@@H](Cc1ccccc1)NC(=O)[C@H](Cc1c[nH]cn1)NC(=O)[C@H](CCC(=O)O)NC(=O)[C@H](CS)NC(=O)[C@H](CS)NC(=O)[C@H](CCCNC(=N)N)NC(=O)[C@@H]1CC(=O)N[C@@H](CCCNC(=N)N)C(=O)N[C@@H](C)C(=O)N[C@@H](CC(=O)O)C(=O)N[C@H](Cc2ccc(O)cc2)C(=O)N1)C(N)=O [technetium-99m labelled],,,"C57 mouse, intestine","intravenous, 0.037 MBq, 24 h",,tissue uptake,0.41 ± 0.11 %ID
CC(C)(CNC(=O)c1cccc(-c2noc(C(F)(F)F)n2)c1)c1coc(-c2ccccc2)n1,class IIa HDACs,"enzyme activity, inhibitor",multiple cancer cell lines,summary value,,IC50,> 0.8 µM
O=C(NO)c1ccc(Cn2cc(Cn3cnc4ccc(I)cc4c3=O)nn2)cc1,HDAC,"enzyme activity, inhibitor, fluorogenic",HeLa nuclear extract,"30 min, 37 °C",,IC50,0.337 µM
Oc1cc(O)cc(/C=C/c2ccccc2)c1,NF-κB (human),"reporter gene, inhibitor",SW1353,added: PMA,,IC50,14.5 µg/mL
Cc1c(C)c(NC(=O)C2CCN(Cc3ccccc3)C2)c(C)c(C)c1Cl (stereo not drawn),"Nav1.4, Pelophylax lessonae","sodium current, use-dependent blocker, vaseline gap voltage clamp",skeletal muscle fibres,2 Hz pulse trains,,IC50,16.2 ± 1.6 µM
c1cnc(NCCCn2ccnc2)cn1,Fe-SOD (Leishmania braziliensis),inhibitor,Leishmania braziliensis,promastigotes,,IC50,0.09 µM
COc1cc(O)cc(/C=C/c2ccccc2)c1,NF-κB (human),"reporter gene, inhibitor",SW1353,added: PMA,,IC50,17 µg/mL
Clc1cccc(Nc2nnc(-c3ccccc3)c3ccccc23)c1,phosphodiesterase human,"cGMP hydrolysis, fluorescence polarization",HT-29 cell lysate,,,IC50,4 µM
COc1cc(O)cc(O)c1C(=O)/C=C/c1ccccc1,HEK293 NF-κB luciferase reporter,"NF-κB reporter gene, antagonist",,"24 h, added: TNFα 5 ng/mL",,EC50,3.29 µM
CN1CCN(c2ccc3[nH]c(-c4ccc5[nH]c(-c6ccc(O)cc6)nc5c4)nc3c2)CC1,r(CUG)12 RNA-MBNL1 complex,"MBNL1 displacement from r(CUG)12 RNA, inhibitor, qTR-FRET",,,,IC50,> 1000 µM
Cc1cccc(C)c1NC(=O)C1CCCCN1Cc1ccccc1 (stereo not drawn),"Nav1.4, Pelophylax lessonae","sodium current, use-dependent blocker, vaseline gap voltage clamp",skeletal muscle fibres,2 Hz pulse trains,,IC50,98.4 ± 7.5 µM
CC(C)(O)C(O)Cc1cc(/C=C/c2cc(O)cc(O)c2)ccc1O (stereo not drawn),NF-κB (human),"reporter gene, inhibitor",SW1353,added: PMA,,IC50,> 25 µg/mL
Cc1cccc(C)c1NC(=O)C(C)N (stereo not drawn),"Nav1.4, Pelophylax lessonae","sodium current, use-dependent blocker, vaseline gap voltage clamp",skeletal muscle fibres,10 Hz pulse trains,,IC50,> 200 µM
COc1cc(/C=C/c2ccccc2)cc(OC)c1,NF-κB (human),"reporter gene, inhibitor",SW1353,added: PMA,,IC50,> 25 µg/mL
c1ccc2[nH]c(-c3ccsc3)cc2c1,HEK293 NF-κB luciferase reporter,"reporter gene, refers to: NF-κB",,"50 µM, 6 h, added: TNFα",,inhibition,35.6 ± 3.1%
O=C(NO)c1ccc(CN2c3ccccc3Oc3ccc(C(=O)Nc4ccccc4)cc32)cc1,HeLa nuclear HDACs,"enzyme activity, inhibitor",,added: Boc-Lys(Ac)-AMC,,IC50,0.11 ± 0.02 µM
O=C(NO)c1ccc(Cn2cc(Cn3cnc4ccccc4c3=O)nn2)cc1,HDAC,"enzyme activity, inhibitor, fluorogenic",HeLa nuclear extract,"30 min, 37 °C",,IC50,0.262 µM
O=C(NO)c1ccc(CN2c3ccccc3Oc3cc(Br)ccc32)cc1,HeLa nuclear HDACs,"enzyme activity, inhibitor",,added: Boc-Lys(Ac)-AMC,,IC50,0.53 ± 0.01 µM
Oc1ccc(/C=C/c2ccccc2)cc1O,NF-κB (human),"reporter gene, inhibitor",SW1353,added: PMA,,IC50,> 25 µg/mL
O=C(/C=C/c1ccc(Cn2cc(Cn3cnc4ccc(F)cc4c3=O)nn2)cc1)NO,HDAC,"enzyme activity, inhibitor, fluorogenic",HeLa nuclear extract,"30 min, 37 °C",,IC50,0.463 µM
CC(C)[C@H](NC(=O)[C@@H]1CCCN1C(=O)[C@H](CCCNC(=N)N)NC(=O)[C@H](CS)NC(=O)[C@H](Cc1c[nH]c2ccccc12)NC(=O)[C@H](CCCNC(=N)N)NC(=O)[C@@H](Cc1ccccc1)NC(=O)[C@H](Cc1c[nH]cn1)NC(=O)[C@H](CCC(=O)O)NC(=O)[C@H](CS)NC(=O)[C@H](CS)NC(=O)[C@H](CCCCN)NC(=O)[C@@H]1CC(=O)N[C@@H](CCCNC(=N)N)C(=O)N[C@@H](C)C(=O)N[C@@H](CC(=O)O)C(=O)N[C@H](Cc2ccc(O)cc2)C(=O)N1)C(N)=O [technetium-99m labelled],,,"C57 mice, tumor","intravenous, 0.037 MBq, 0.5 h",,tissue uptake,16.6 ± 1.91 %ID/g
O=C(NO)c1ccc(Cn2cc(Cn3cnc4ccc(Cl)cc4c3=O)nn2)cc1,HDAC,"enzyme activity, inhibitor, fluorogenic",HeLa nuclear extract,"30 min, 37 °C",,IC50,0.217 µM
Nc1ccc2[nH]c(-c3ccccc3)cc2c1,HEK293 NF-κB luciferase reporter,"reporter gene, refers to: NF-κB",,"50 µM, 6 h, added: TNFα",,inhibition,78.4 ± 12.1%
Cc1ccc(NC(=O)c2ccc(CN3CCN(C)CC3)cc2)cc1Nc1nccc(-c2cncc(-c3oncc3C)c2)n1,,,mild-to-moderate Parkinson's disease patients,"oral, 100 mg once daily, day 7, on anti-Parkinson medication",direction not given,PDQ-39 score,14.8 ± 14.1
Cc1cccc(C)c1NC(=O)C1CCN(Cc2ccccc2)C1 (racemic),"Nav1.4, Pelophylax lessonae","sodium current, use-dependent blocker, vaseline gap voltage clamp",skeletal muscle fibres,2 Hz pulse trains,,IC50,5.7 ± 0.1 µM
CC(C)(O)C(O)Cc1c(O)cc(/C=C/c2ccc(O)cc2)cc1O (stereo not drawn),NF-κB (human),"reporter gene, inhibitor",SW1353,added: PMA,,IC50,> 25 µg/mL
NCc1cccc(C2CCN(C(=O)c3cccc(NC(=O)C(=O)C4(O)CCC4)c3)CC2)c1,"tryptase, human","enzyme activity, inhibitor",HMC1,"2 h, added: A23187 1 µM",,IC50,0.439 µM

# For quick reference, copied from above:
SMILES,target or system,assay,test system,conditions,scale,measurement,result
c1cnc(NCCCn2ccnc2)cn1,Fe-SOD (Leishmania braziliensis),inhibitor,Leishmania braziliensis,promastigotes,,IC50,0.09 µM
COc1cc(O)cc(/C=C/c2ccccc2)c1,NF-κB (human),"reporter gene, inhibitor",SW1353,added: PMA,,IC50,17 µg/mL
Clc1cccc(Nc2nnc(-c3ccccc3)c3ccccc23)c1,phosphodiesterase human,"cGMP hydrolysis, fluorescence polarization",HT-29 cell lysate,,,IC50,4 µM
COc1cc(O)cc(O)c1C(=O)/C=C/c1ccccc1,HEK293 NF-κB luciferase reporter,"NF-κB reporter gene, antagonist",,"24 h, added: TNFα 5 ng/mL",,EC50,3.29 µM
